{"data": "Measurements gathered from unrelated publications", "note": "Lines come from different studies, so protocols differ. ± gives the spread as reported."}
{"Structure (SMILES)": "N=C(N)NCCC[C@H](NC(=O)CON=C[C@H](F)[C@@H](O)[C@H](O)[C@H](O)CO)C(=O)NCC(=O)N[C@@H](CC(=O)O)C(=O)O [fluorine-18 labelled]", "system": "nude mice U-87 MG tumour, blood", "setting": "intravenous, 2 h", "tissue uptake": "0.02 %ID/g"}
{"Structure (SMILES)": "CN1C(=O)[C@@H](Cc2ccc(O)c(I)c2)NC(=O)CNC(=O)[C@H](Cc2ccc3ccccc3c2)NC(=O)[C@H](CCCNC(=N)N)NC(=O)[C@H]1CCCNC(=O)c1ccc(CNC(=O)CN2CCN(CC(=O)O)CCN(CC(=O)O)CCN(CC(=O)O)CC2)cc1 [lutetium-177 labelled]", "test": "item: 177Lu radioactivity", "system": "female CB-17 SCID mice, Daudi xenograft, large intestine", "setting": "intravenous, 0.16 nmol per mouse, 1 h", "tissue uptake": "1.3 ± 1.2 %ID/g"}
{"Structure (SMILES)": "O=C([O-])CN1CCN(CC(=O)[O-])CCN(CC(=O)[O-])CCN(CC(=O)[O-])CC1.[64Cu+2]", "system": "healthy athymic nude mice, liver", "setting": "intravenous, 15 min", "tissue uptake": "2.32 %ID/g"}
{"Structure (SMILES)": "CC(C)[C@H](NC(=O)[C@@H]1CCCN1C(=O)[C@H](CCCNC(=N)N)NC(=O)[C@H](CS)NC(=O)[C@H](Cc1c[nH]c2ccccc12)NC(=O)[C@H](CCCNC(=N)N)NC(=O)[C@@H](Cc1ccccc1)NC(=O)[C@H](Cc1c[nH]cn1)NC(=O)[C@H](CCC(=O)O)NC(=O)[C@H](CS)NC(=O)[C@H](CS)NC(=O)CNC(=O)[C@@H]1CC(=O)N[C@@H](CCCNC(=N)N)C(=O)NCC(=O)N[C@@H](CC(=O)O)C(=O)N[C@H](Cc2ccc(O)cc2)C(=O)N1)C(N)=O [technetium-99m labelled]", "system": "C57 mice B16/F1 melanoma female, intestines", "setting": "iv, 0.037 MBq, 4 h", "tissue uptake": "4.71 ± 2.8 %ID"}
{"Structure (SMILES)": "O=C([O-])c1cccc(CN(CCN(Cc2cn(Cc3ccccc3)nn2)Cc2cccc(C(=O)[O-])n2)Cc2cn(Cc3ccccc3)nn2)n1.[64Cu+2]", "system": "healthy athymic nude mice, spleen", "setting": "intravenous, 1 h", "tissue uptake": "2.27 %ID/g"}
{"Structure (SMILES)": "O=C([O-])CN1CCN(CC(=O)[O-])CCN(CC(=O)NCCc2ccc3c(c2)C2C=CCC2C(c2cc4c(cc2Br)OCO4)N3)CCN(CC(=O)[O-])CC1.[111In+3] (stereo not shown)", "system": "mice with Hec50 tumour xenograft, lungs", "setting": "2 h, with: G-1 5 µg blocking", "tissue uptake": "1 ± 0.23 %ID/g"}
{"Structure (SMILES)": "CC(C)[C@H](NC(=O)[C@@H]1CCCN1C(=O)[C@H](CCCNC(=N)N)NC(=O)[C@H](CS)NC(=O)[C@H](Cc1c[nH]c2ccccc12)NC(=O)[C@H](CCCNC(=N)N)NC(=O)[C@@H](Cc1ccccc1)NC(=O)[C@H](Cc1c[nH]cn1)NC(=O)[C@H](CCC(=O)O)NC(=O)[C@H](CS)NC(=O)[C@H](CS)NC(=O)[C@@H]1CC(=O)N[C@@H](CCCNC(=N)N)C(=O)NCC(=O)N[C@@H](CC(=O)O)C(=O)N[C@H](Cc2ccc(O)cc2)C(=O)N1)C(N)=O [technetium-99m labelled]", "system": "C57 mice B16/F1 melanoma female, intestines", "setting": "iv, 0.037 MBq, 24 h", "tissue uptake": "1.22 ± 0.21 %ID"}
{"Structure (SMILES)": "CCCC[C@H](NC(=O)CNC(=O)CNC(=O)CN1CCN(CC(=O)O)CCN(CC(=O)O)CCN(CC(=O)O)CC1)C(=O)N[C@H]1CC(=O)NCCCC[C@@H](C(N)=O)NC(=O)[C@H](Cc2c[nH]c3ccccc23)NC(=O)[C@H](CCCNC(=N)N)NC(=O)[C@@H](Cc2ccccc2)NC(=O)[C@H](Cc2c[nH]cn2)NC1=O [gallium-67 labelled]", "system": "female C57 mice, B16/F1 melanoma, bone", "setting": "intravenous, 0.037 MBq, 24 h", "tissue uptake": "0.72 ± 0.7 %ID/g"}
{"Structure (SMILES)": "NC12CNCCNCC(NCc3ccc(CNC(=O)CCCC(=O)NCc4ccc(-c5nncnn5)cc4)cc3)(CNCCNC1)CNCCNC2.[64Cu+2]", "system": "athymic nude mice, SW1222 xenograft, liver", "setting": "24 h post-injection, 24 h pretargeting interval, with: huA33-TCO pretargeting", "tissue uptake": "1.51 ± 0.2 %ID/g"}
{"Structure (SMILES)": "CCCC[C@H](NC(=O)CN1CCC(NC(=O)CN2CCN(CC(=O)O)CCN(CC(=O)O)CCN(CC(=O)O)CC2)CC1)C(=O)N[C@H]1CC(=O)NCCCC[C@@H](C(N)=O)NC(=O)[C@H](Cc2c[nH]c3ccccc23)NC(=O)[C@H](CCCNC(=N)N)NC(=O)[C@@H](Cc2ccccc2)NC(=O)[C@H](Cc2c[nH]cn2)NC1=O [gallium-68 labelled]", "system": "C57BL/6J mice male B16-F10 tumour, blood", "setting": "1 h post injection, unblocked", "tissue uptake": "0.9 ± 0.5 %ID/g"}
{"Structure (SMILES)": "CCCC[C@@H]1NC(=O)[C@@H](NC(=O)[C@H](CCC(=O)O)NC(=O)CNC(=O)CN2CCN(CC(=O)O)CCN(CC(=O)O)CCN(CC(=O)O)CC2)CCCCNC(=O)C[C@@H](C(N)=O)NC(=O)[C@H](C(C)C)NC(=O)[C@@H]2CCCN2C(=O)[C@H](CCCNC(=N)N)NC(=O)CNC(=O)[C@H](Cc2c[nH]c3ccccc23)NC(=O)[C@H](CCCNC(=N)N)NC(=O)[C@@H](Cc2ccccc2)NC(=O)[C@H](Cc2c[nH]cn2)NC(=O)[C@H](CCC(=O)O)NC1=O [gallium-67 labelled]", "system": "C57 mice with B16/F1 melanoma, stomach", "setting": "intravenous, 0.037 MBq, 2 h", "tissue uptake": "0.08 ± 0.07 %ID/g"}
{"Structure (SMILES)": "CCCC[C@H](NC(=O)CNC(=O)CNC(=O)CN1CCN(CC(=O)O)CCN(CC(=O)O)CC1)C(=O)N[C@H]1CC(=O)NCCCC[C@@H](C(N)=O)NC(=O)[C@H](Cc2c[nH]c3ccccc23)NC(=O)[C@H](CCCNC(=N)N)NC(=O)[C@@H](Cc2ccccc2)NC(=O)[C@H](Cc2c[nH]cn2)NC1=O [gallium-67 labelled]", "system": "female C57 mice, B16/F1 melanoma, blood", "setting": "intravenous, 0.037 MBq, 2 h", "tissue uptake": "0.4 ± 0.19 %ID/g"}
{"Structure (SMILES)": "N#C[C@@H]1CCCN1C(=O)CNC(=O)c1ccnc2ccc(OCCCN3CCN(C(=O)CCc4ccc5c(c4)CN4CCN(Cc6cc(CCC(=O)O)ccc6O)CC(=O)[O][Al-]([18F])([O]C(=O)C4)[O]5)CC3)cc12 (stereo partly shown)", "system": "BALB/c nude mice, U-87 MG xenograft, tumour", "setting": "1 h, blocked 60 min, with: DOTA-FAPI-04 40 nmol co-injected", "tissue uptake": "0.47 ± 0.15 %ID/g"}
{"note": "A few entries again:"}
{"Structure (SMILES)": "CCCC[C@H](NC(=O)CNC(=O)CNC(=O)CN1CCN(CC(=O)O)CCN(CC(=O)O)CCN(CC(=O)O)CC1)C(=O)N[C@H]1CC(=O)NCCCC[C@@H](C(N)=O)NC(=O)[C@H](Cc2c[nH]c3ccccc23)NC(=O)[C@H](CCCNC(=N)N)NC(=O)[C@@H](Cc2ccccc2)NC(=O)[C@H](Cc2c[nH]cn2)NC1=O [gallium-67 labelled]", "system": "female C57 mice, B16/F1 melanoma, bone", "setting": "intravenous, 0.037 MBq, 24 h", "tissue uptake": "0.72 ± 0.7 %ID/g"}
{"Structure (SMILES)": "NC12CNCCNCC(NCc3ccc(CNC(=O)CCCC(=O)NCc4ccc(-c5nncnn5)cc4)cc3)(CNCCNC1)CNCCNC2.[64Cu+2]", "system": "athymic nude mice, SW1222 xenograft, liver", "setting": "24 h post-injection, 24 h pretargeting interval, with: huA33-TCO pretargeting", "tissue uptake": "1.51 ± 0.2 %ID/g"}
